Experimental data collected from several papers.
Compare with care: the assays were run in different laboratories. “And” joins repeats or separate records; there may be more than shown.

`CC(C)[C@@H]1NC(=O)CNC(=O)[C@H](CC(N)=O)NC(=O)[C@H](CCCNC(=N)N)NC(=O)[C@H](Cc2ccc(O)cc2)NC(=O)[C@H](C(C)C)NC(=O)[C@@H](NC(=O)[C@@H](NC(=O)[C@H](CC(N)=O)NC(=O)[C@H](Cc2c[nH]c3ccccc23)NC(=O)[C@H](C)NC(=O)[C@H](Cc2ccccc2)NC(=O)CNC(=O)[C@H](CCCCN)NC(=O)[C@H](Cc2ccccc2)NC(=O)[C@H](Cc2ccccc2)NC(=O)[C@H](CCCCN)NC(=O)OCC2c3ccccc3-c3ccccc32)C(C)C)CSSC[C@@H](C(=O)N[C@@H](Cc2c[nH]cn2)C(=O)N[C@@H](CCCNC(=N)N)C(=O)N[C@@H](CCCNC(=N)N)C(=O)N[C@@H](C)C(=O)N[C@@H](CC(N)=O)C(N)=O)NC(=O)[C@H](C(C)C)NC(=O)[C@H](CCCNC(=N)N)NC1=O` gave a remaining peptide of 62.6% and 57.8% and 64% (HPLC; mouse mammary gland homogenate; 2560 µM, 10.00 h, 37 °C, 50 mg/mL tissue).
For `C=CCN1CCC23c4c5ccc(OC(=O)c6ccc(NC(=O)OC(C)(C)C)cc6)c4OC2C(=O)CCC3(O)C1C5` (stereo not drawn), the remaining compound was 0.851% and 0.652% and 0.665% (rat plasma; 0.5 h, with: digitonin 100 µM).
For `C[C@H](NC(=O)CNC(=O)[C@@H]1CCCN1C(=O)[C@H](CO)NC(=O)CNC(=O)[C@H](CO)NC(=O)[C@H](C)NC(=O)[C@H](CC(N)=O)NC(=O)[C@H](C)NC(=O)[C@H](CO)NC(=O)[C@H](C)NC(=O)[C@H](CO)NC(=O)[C@@H]1CCCN1C(=O)[C@H](Cc1ccccc1)NC(=O)[C@H](C)NC(=O)[C@H](CO)NC(=O)[C@@H]1CCCN1C(=O)[C@H](Cc1ccccc1)NC(=O)[C@@H](NC(=O)[C@H](CC(=O)O)NC(=O)[C@@H](N)CO)[C@@H](C)O)C(=O)N[C@@H](CCCNC(=N)N)C(=O)N[C@@H](CO)C(=O)O`, the remaining peptide was 1.03% (CHO-K1 culture medium; 20 min).
`CC[C@H](C)[C@H](NC(=O)[C@@H](NC(=O)[C@H](CCCCN)NC(=O)[C@@H](NC(=O)CNC(=O)[C@@H](N)CCCNC(=N)N)[C@@H](C)O)C(C)C)C(=O)N[C@@H](CC(C)C)C(=O)N[C@@H](Cc1c[nH]cn1)C(=O)N[C@@H](CC(C)C)C(N)=O`: “remaining intact peptide” 0% (LC-MS; pronase digest; 200 µM, 30 min, pH 7.5, 37 °C, with: pronase 2.5 µg/mL).
`C#Cc1c(F)ccc2cc(O)cc(-c3ncc4c(N5CC6CCC(C5)N6C(=O)OC(C)OC(=O)C5CCOCC5)nc(OC[C@@]56CCCN5C[C@H](F)C6)nc4c3F)c12` (stereo partly drawn) has a remaining prodrug of 109% (simulated gastric fluid; 1 µM, 30 min, 37 °C).
For `C[C@@H](Oc1ccc2c(c1)[C@H]1CCN[C@@]1(C)CO2)c1ccccc1`, the remaining compound was 96% (HPLC; DPBS; 10 µM, 4 h, with: CellROX Green 5 µM and tBHP 55 µM).
The remaining peptide of `CSCC[C@H](NC(=O)[C@H](CCCNC(=N)N)NC(=O)[C@H](CCCNC(=N)N)NC(=O)[C@H](CCCCN)NC(=O)[C@H](C)NC(=O)[C@H](CCCNC(=N)N)NC(=O)CNC(=O)[C@@H](N)[C@@H](C)O)C(=O)N[C@@H](CCC(N)=O)C(=O)N[C@@H](Cc1ccc(O)cc1)C(=O)N[C@@H](CC(N)=O)C(=O)N[C@@H](CCCNC(=N)N)C(=O)N[C@@H](CCCNC(=N)N)C(N)=O` is reported as 13.2% and 14.4% and 10.9% (HPLC peak area; 50% human serum; 100 µM, 6 h, pH 7.4, 37 °C; baseline: 0 h).
Under “remaining intact peptide”, `CC[C@H](C)[C@H](NC(=O)[C@@H](NC(=O)[C@@H](NC(=O)[C@@H](NC(=O)[C@@H](N)CCCCN)C(C)C)C(C)C)C(C)C)C(=O)N[C@H](C(N)=O)[C@@H](C)O` is recorded as 83% (LC-MS; pronase digest; 200 µM, 1 h, pH 7.5, 37 °C, with: pronase 2.5 µg/mL).
`C#Cc1c(F)ccc2cc(O)cc(-c3ncc4c(N5CC6CCC(C5)N6C(=O)OC(C)OC(=O)CC5CCCC5)nc(OC[C@@]56CCCN5C[C@H](F)C6)nc4c3F)c12` (stereo partly drawn) has a remaining prodrug of 109% (simulated gastric fluid; 1 µM, 30 min, 37 °C).
`CC[C@H](C)[C@H](NC(=O)[C@@H](NC(=O)[C@H](CCCCN)NC(=O)[C@@H](NC(=O)[C@@H]1CCCN1[C@@H]1CN(C(=O)[C@@H](NC(=O)[C@@H](NC(=O)[C@@H](NC(=O)[C@@H](NC(=O)[C@@H](NC(=O)[C@@H](N)CCCCN)C(C)C)C(C)C)C(C)C)[C@@H](C)CC)[C@@H](C)O)CC[C@H]1NS(=O)(=O)c1ccc(C)cc1)[C@@H](C)O)C(C)C)C(=O)N[C@@H](CC(C)C)C(=O)N[C@@H](Cc1c[nH]cn1)C(N)=O`: “remaining intact peptide” 100% (LC-MS; pronase digest; 200 µM, 1 h, pH 7.5, 37 °C, with: pronase 2.5 µg/mL).
For `Cc1nnc(-c2ccc(CC(=O)NCCCC[C@H](NC(=O)c3ccc(OCc4ccc(B(O)O)cc4)c(-c4nc5ccccc5c(=O)[nH]4)c3)C(=O)NCC(=O)NCC(=O)NCC(=O)N[C@@H](Cc3ccccc3)C(=O)N[C@@H](Cc3ccccc3)C(=O)O)cc2)nn1`, the remaining compound was 93.2% and 102% (UPLC-MS/MS; human serum; 100 µM, 0.083 h, 37 °C).
The remaining compound of `C=CCN1CCC23c4c5ccc(OC(=O)c6ccccc6)c4OC2C(=O)CCC3(O)C1C5` (stereo not drawn) is reported as 3.2% and 2.9% (human plasma; 24 h).
The remaining prodrug of `C#Cc1c(F)ccc2cc(O)cc(-c3ncc4c(N5CC6CCC(C5)N6C(=O)OC(CCC)OC(=O)CCC)nc(OC[C@@]56CCCN5C[C@H](F)C6)nc4c3F)c12` (stereo partly drawn) is reported as 93.7% (simulated gastric fluid; 1 µM, 30 min, 37 °C).
With `Cc1cc(-c2ccc3ccccc3c2)nnc1NCCN1CCN(C)CC1` the remaining compound was 88% (rat liver microsomes; 10 min).
`C#Cc1c(F)ccc2cc(O)cc(-c3ncc4c(N5CC6CCC(C5)N6C(=O)OC(OC(=O)CCC)C5CCC5)nc(OC[C@@]56CCCN5C[C@H](F)C6)nc4c3F)c12` (stereo partly drawn) gave a remaining prodrug of 91.1% (simulated gastric fluid; 1 µM, 30 min, 37 °C).
The remaining compound of `C=CCN1CCC23c4c5ccc(OC(=O)c6ccc(NCc7cn(CCCCCCCCCCCC)nn7)cc6)c4OC2C(=O)CCC3(O)C1C5` (stereo not drawn) is reported as 0% (rat plasma; 5 µM, 2 h, 37 °C).
`C#Cc1c(F)ccc2cc(O)cc(-c3ncc4c(N5CC6CCC(C5)N6C(=O)OC(C)OC(C)=O)nc(OC[C@@]56CCCN5C[C@H](F)C6)nc4c3F)c12` (stereo partly drawn) has a remaining prodrug of 94.6% (simulated gastric fluid; 1 µM, 30 min, 37 °C).
`C[C@H](NCc1ccc(-c2ccc(C(F)(F)F)cc2)cc1)C(N)=O` gave a remaining compound of 98.3% (human plasma; 1 µM, 120 min).
For `C#Cc1c(F)ccc2cc(O)cc(-c3ncc4c(N5CC6CCC(C5)N6C(=O)OC(CC)OC(=O)CCC)nc(OC[C@@]56CCCN5C[C@H](F)C6)nc4c3F)c12` (stereo partly drawn), the remaining prodrug was 94.4% (simulated gastric fluid; 1 µM, 30 min, 37 °C).
With `C=CCN1CCC23c4c5ccc(OC(=O)c6ccc(N)cc6)c4OC2C(=O)CCC3(O)C1C5` (stereo not drawn) the remaining compound was 0.3% and 0.317% (rat plasma; 1 h, no inhibitor).
For `CCCCCCCCCCCC(=O)C(C)C(=O)N1CCC[C@H]1C(=O)NC(C)(C)C(=O)NC(C)(C)C(=O)NC(C)(C)C(=O)N[C@](C)(CC)C(=O)NCCC(=O)N[C@@H](C)C(=O)N[C@](C)(CC)C(=O)N[C@@H](C)C(=O)N[C@@H](CC(C)C)C(=O)N[C@](C)(CC)C(=O)NCCC(=O)N[C@@H](C)C(=O)N[C@](C)(CC)C(=O)NCCC(=O)N[C@@H](C)C(=O)NC(C)(C)C(=O)NC(C)(C)C(=O)NC(C)(C)C(=O)N[C@@H](C)C(=O)N[C@@H](CC(=O)O)C(=O)O` (stereo partly drawn), “remaining intact peptide” read 31.2% and 27.1% and 32.8% (LC-MS; 50% pooled human serum; 40 µM, 540 min, pH 7.5, 37 °C; baseline: 0 h).

For quick reference, copied from above:
For `C[C@H](NC(=O)CNC(=O)[C@@H]1CCCN1C(=O)[C@H](CO)NC(=O)CNC(=O)[C@H](CO)NC(=O)[C@H](C)NC(=O)[C@H](CC(N)=O)NC(=O)[C@H](C)NC(=O)[C@H](CO)NC(=O)[C@H](C)NC(=O)[C@H](CO)NC(=O)[C@@H]1CCCN1C(=O)[C@H](Cc1ccccc1)NC(=O)[C@H](C)NC(=O)[C@H](CO)NC(=O)[C@@H]1CCCN1C(=O)[C@H](Cc1ccccc1)NC(=O)[C@@H](NC(=O)[C@H](CC(=O)O)NC(=O)[C@@H](N)CO)[C@@H](C)O)C(=O)N[C@@H](CCCNC(=N)N)C(=O)N[C@@H](CO)C(=O)O`, the remaining peptide was 1.03% (CHO-K1 culture medium; 20 min).
`CC[C@H](C)[C@H](NC(=O)[C@@H](NC(=O)[C@H](CCCCN)NC(=O)[C@@H](NC(=O)CNC(=O)[C@@H](N)CCCNC(=N)N)[C@@H](C)O)C(C)C)C(=O)N[C@@H](CC(C)C)C(=O)N[C@@H](Cc1c[nH]cn1)C(=O)N[C@@H](CC(C)C)C(N)=O`: “remaining intact peptide” 0% (LC-MS; pronase digest; 200 µM, 30 min, pH 7.5, 37 °C, with: pronase 2.5 µg/mL).
`C#Cc1c(F)ccc2cc(O)cc(-c3ncc4c(N5CC6CCC(C5)N6C(=O)OC(C)OC(=O)C5CCOCC5)nc(OC[C@@]56CCCN5C[C@H](F)C6)nc4c3F)c12` (stereo partly drawn) has a remaining prodrug of 109% (simulated gastric fluid; 1 µM, 30 min, 37 °C).
